Experimental data gathered from unrelated publications.
Each line is one published result; not all experiments were run side by side. ± marks the error that the study gave.

Substance	test	system	setting	scale	quantity	result
CC(C)C(=O)OC[C@H]1O[C@@H](n2ccc(NO)nc2=O)[C@H](O)[C@@H]1O	–	rat brain dialysate	250 ng/mL, 4 weeks, -20 °C, long-term storage, added: NHC 1000 ng/mL	–	remaining compound	99.17 ± 0.69%
CC[C@H](C)[C@@H]1NC(=O)[C@@H]2CSSC[C@H](NC(=O)[C@H](Cc3ccccc3)NC(=O)[C@@H](NC(=O)[C@@H](CO)NC(=O)[C@@H](Cc3ccccc3)NC(=O)[C@@H](CC(C)C)NC(=O)[C@@H]3CCCN3C(=O)[C@@H](CC(C)C)NC(=O)[C@@H](Cc3ccccc3)NC(=O)[C@@H](CCC(=O)O)NC(=O)[C@@H](C)NC(=O)[C@@H](Cc3ccccc3)NC(=O)[C@H](N)C(C)C)CSSC[C@@H](C(=O)N[C@@H](CC(C)C)C(=O)N[C@@H](CC(N)=O)C(N)=O)NC1=O)C(=O)N[C@@H]([C@@H](C)O)C(=O)N[C@@H](CCCNC(=N)N)C(=O)N[C@@H](CCSC)C(=O)N[C@@H](CO)C(=O)N1CCC[C@H]1C(=O)N1CCC[C@H]1C(=O)N[C@@H](CCC(N)=O)C(=O)N2	–	pronase digestion	20 h, pH 8.0, 25 °C, added: 1 M guanidine HCl	–	remaining intact peptide	55%
CCNc1nc(Cl)nc(NCC)n1	LC-MS/MS	herbicide solution	2 h, 23 °C, added: 365 nm UV exposure	–	remaining amount	30.8 ± 3.52%
Cc1cc2c(C(C)C)c(O)c(O)c(C=O)c2c(O)c1-c1c(C)cc2c(C(C)C)c(O)c(O)c(C=O)c2c1O	–	acetonitrile extract of human plasma	3.585 µg/mL, 24 h, 4 °C, autosampler	–	remaining concentration	101%
COP(=O)(CC/C=C(\C)CO)OCOC(=O)c1ccc(/N=N/c2ccc(N(C)C)cc2)cc1 (centres unmarked)	–	human plasma 50% in PBS	100 µM, 24 h, pH 7.5	–	remaining compound	7.5 ± 0.7%
CC[C@H](C)[C@@H]1NC(=O)[C@@H]2CSSC[C@H](NC(=O)[C@@H](NC(=O)CN)[C@@H](C)O)C(=O)N[C@@H](CC(N)=O)C(=O)N[C@@H]([C@@H](C)O)C(=O)N3CCC[C@H]3C(=O)NCC(=O)N[C@H]3CSSC[C@H](NC(=O)[C@H](CCSC)NC(=O)[C@H](CC(C)C)NC(=O)[C@H](CCCNC(=N)N)NC(=O)CNC(=O)CNC(=O)[C@H](CC(=O)O)NC1=O)C(=O)NCC(=O)N[C@@H](CCC(=O)O)C(=O)N[C@@H]([C@@H](C)O)C(=O)N[C@H](C(=O)N[C@H](C(=O)NCC(=O)O)C(C)C)CSSC[C@H](NC(=O)[C@H]([C@@H](C)O)NC3=O)C(=O)N[C@@H](CO)C(=O)N[C@@H](Cc1c[nH]c3ccccc13)C(=O)N1CCC[C@H]1C(=O)N[C@@H](C(C)C)C(=O)N2	LC-MS	trypsin in buffer	2 h, 37 °C, added: trypsin 10 µg/mL	–	remaining intact peptide	80%
CC[C@@H](C)[C@@H]1NC(=O)[C@@H](CC(C)C)NC(=O)CN(C)C(=O)[C@H]([C@H](C)CC)NC(=O)[C@@H](CC(C)C)NC(=O)CN(C)C1=O	–	human plasma	2 h, 37 °C	–	remaining compound	≥ 90%
CCNc1nc(Cl)nc(NC(C)C)n1	LC-MS/MS	herbicide solution	2 h, 23 °C, added: 365 nm UV exposure	–	remaining amount	139 ± 23.5%
Dendroaspis natriuretic peptide	cGMP elevation	human kidney membranes	concentration not given, 2 h, 37 °C	–	remaining activity	46%
C/C(=C\CCP(=O)(OCOC(=O)c1ccc(/N=N/c2ccc(N(C)C)cc2)cc1)Oc1ccc2ccc(=O)oc2c1)CO (centres unmarked)	–	human plasma 50% in PBS	100 µM, 24 h, pH 7.5	–	remaining compound	49 ± 4%
CC(C)OC(=O)[C@H](CCC(=O)C=[N+]=[N-])NC(=O)OC(OC(=O)C(C)(C)C)C(C)C (mixture of isomers)	–	mouse plasma	10 µM, 60 min, 37 °C	–	remaining compound	0%
CCc1cccc(CC)c1N(COC)C(=O)CCl	LC-MS/MS	herbicide solution	2 h, 40 °C, added: 365 nm UV exposure	–	remaining amount	3.13 ± 0.56%
CN1CC(=O)O[C@H](Cc2ccccc2)C(=O)NCC(=O)N(C)CC(=O)O[C@H](Cc2ccccc2)C(=O)NCC1=O	–	human plasma	2 h, 37 °C	–	remaining compound	67%
CCOCN(C(=O)CCl)c1c(C)cccc1CC	LC-MS/MS	herbicide solution	2 h, 40 °C, added: 254 nm UV exposure	–	remaining amount	20.3 ± 5.95%
CC[C@H](C)[C@H](NC(=O)[C@@H](NC(=O)[C@H](CCC(=O)O)NC(=O)[C@@H]1CCCN1C(=O)[C@H](CO)NC(=O)[C@H](Cc1ccccc1)NC(=O)[C@H](C)NC(=O)[C@@H](N)CCCCN)C(C)C)C(=O)N1CCC[C@H]1C(=O)N[C@@H](CCSC)C(=O)N[C@@H](Cc1ccccc1)C(=O)O	–	cytosolic extract	1 nmol, 10 min, pH 7.4, 37 °C	reference: time 0	remaining epitope	60%
CCc1cccc(C)c1N(C(=O)CCl)C(C)COC (centres unmarked)	LC-MS/MS	herbicide solution	2 h, 4 °C, added: 365 nm UV exposure	–	remaining amount	35.4 ± 17.7%
CC[C@H](C)[C@H](NC(=O)[C@H](CCCNC(=N)N)NC(=O)[C@H](CCCNC(=N)N)NC(=O)[C@H](CC(C)C)NC(=O)[C@H](CCC(N)=O)NC(=O)[C@H](CCC(=O)O)NC(=O)[C@H](C)NC(=O)[C@@H](NC(=O)[C@H](CNC(=O)c1cc(S(=O)(=O)F)ccc1C)NC(C)=O)[C@@H](C)CC)C(=O)NCC(=O)N[C@@H](CC(=O)O)C(=O)N[C@@H](CCCNC(=N)N)C(=O)N[C@@H](Cc1ccccc1)C(N)=O	1H NMR	aqueous buffer	3 h 30 min, pH 7.5, room temperature	–	remaining intact compound	> 80%

A few entries again:
Substance	test	system	setting	scale	quantity	result
Dendroaspis natriuretic peptide	cGMP elevation	human kidney membranes	concentration not given, 2 h, 37 °C	–	remaining activity	46%
C/C(=C\CCP(=O)(OCOC(=O)c1ccc(/N=N/c2ccc(N(C)C)cc2)cc1)Oc1ccc2ccc(=O)oc2c1)CO (centres unmarked)	–	human plasma 50% in PBS	100 µM, 24 h, pH 7.5	–	remaining compound	49 ± 4%
